# Measured values from different studies.
Compound,target or system,test,system,setting,measurement,result
CN(C)C(=O)c1cc2cnc(Nc3ccc(N4CCNCC4)cn3)nc2n1C1CCCC1,,"item: Thrombocytopenia, AESI","human, HR+/HER2− advanced breast cancer","oral, dose not given, all grades, CTCAE v4.03",patients with adverse event,9.6%
C[C@@H]1OC(=O)NN=C1c1ccc(-c2ccc(F)cc2)c(C(F)(F)F)c1,,"phase I trial, item: Pneumonitis worst grade 3",human patients,10 mg loading then 0.5 mg daily,patients with adverse event,0%
C[C@]1(O)C[C@@](N)(c2ccc(-c3nc4n(c3-c3ccccc3)COc3ccncc3-4)cc2)C1,,,"human, advanced or metastatic solid tumours","16 mg once daily, phase I dose escalation",patients with Pruritus TEAE,0%
NC(=O)CCCSc1nc(N)nc(-c2c(Cl)cc3c4c(cccc24)COC3)n1,human coronavirus OC43,virus-induced cell killing,MRC-5,screen,maximum inhibition,32.4%
C=CC(=O)Nc1cc(Nc2nccc(Nc3cc(Cl)c(F)cc3C(C)(C)O)n2)c(OC)cc1N1CC[C@@H](N(C)C)C1,,,human patients,"oral, 400 mg, treatment-emergent adverse events",patients with decreased appetite,45%
COc1ccc(-c2c(-c3ccc(C#N)c(F)c3)nc(N3CCC(N)CC3)n(C)c2=O)cc1F,,item: cerebrovascular accident,human patients,"oral, dose not given, dose escalation",patients with serious TEAE,2%
CNC(=O)c1cc(Oc2ccc(NC(=O)Nc3cc(C(C)(C)C)nn3-c3ccc4ncccc4c3)c(F)c2)ccn1,,,"human, trial","oral, 150 mg twice daily, starting dose",patients with related serious Cardiomyopathy AE,3%
Cn1cncc1-c1c(F)cncc1NC(=O)c1c(N)nn2cc(F)cnc12,,,human patients,"oral, 220 mg once daily, 2 weeks on 1 week off",patients grade ≥3 Neutrophil count decrease,0%
O=C(O)CC[C@H]1CC[C@@](c2cc(F)ccc2F)(S(=O)(=O)c2ccc(Cl)cc2)CC1,human coronavirus OC43,virus-induced cell killing,MRC-5,screen,maximum inhibition,4.98%
O=C1Nc2cc3[nH]nc(-c4ccncc4)c3cc2CN1Cc1ccccc1,,CTCAE v4.03,"human, relapsed or refractory advanced solid tumours","intravenous, 7.2 mg/kg, pooled schedules",patients with subretinal fluid,40%
COc1ncnn2ccc(-c3cnc4nc(C)n(Cc5nnc([C@@H](C)F)o5)c4c3)c12,,,human,"oral, dose not given, grade 4",patients with hyponatremia,0%

# Repeated from above:
Compound,target or system,test,system,setting,measurement,result
COc1ncnn2ccc(-c3cnc4nc(C)n(Cc5nnc([C@@H](C)F)o5)c4c3)c12,,,human,"oral, dose not given, grade 4",patients with hyponatremia,0%
